{"data": "Results pooled from the literature", "note": "Lines come from different studies, so protocols differ. “And” joins repeats or separate records; there may be more than shown. Numbers after ± are the reported error."}
{"Compound": "Cc1cccc(-c2[nH]c(CNc3ccccc3F)nc2-c2ccc3ncnn3c2)n1", "cell line": "CD8+ T cells from myeloma patient", "test": "ELISA", "system": "human", "conditions": "1 µM, 192 h", "measurement": "IFN-gamma production", "result": "1.13% and 1.08% and 1.21% and 1.42%"}
{"Compound": "COc1cnc2cccc(N3CCc4c(cc(Cn5ccnc5C)cc4-c4cn(C)nc4C(F)(F)F)C3=O)c2c1", "cell line": "NCI-H1373", "test": "cell growth, inhibitor", "conditions": "120 h", "measurement": "EC50", "result": "> 30000 nM"}
{"Compound": "CC(=O)c1nn(-c2ccc(Cl)cc2)/c(=N/N=C(\\C)c2ccc(NC(=O)c3ccc(C)cc3)cc2)s1", "cell line": "MCF7", "conditions": "1.25 µM", "measurement": "toxicity", "result": "82.1%"}
{"Compound": "Cc1ccccc1Cn1nc(-c2ccc(CO)o2)c2ccccc21", "cell line": "RBE", "test": "cell viability, CellTiter-Glo", "measurement": "IC50", "result": "1370 nM"}
{"Compound": "CC(=O)O[C@@]12CO[C@@H]1C[C@H](O)[C@@]1(C)C(=O)[C@H](O)C3=C(C)[C@@H](OC(=O)[C@H](O)[C@@H](NC(=O)OC(C)(C)C)c4ccccc4)C[C@@](O)([C@@H](OC(=O)c4ccccc4)[C@H]21)C3(C)C", "cell line": "4T1", "test": "flow cytometry", "conditions": "concentration not given, 48 h", "measurement": "CD133-positive cells", "result": "9 ± 0.3%"}
{"Compound": "Cn1cc(-c2ccc(-c3cncc(Cl)c3N3CCC4(CCNC4=O)CC3)cc2)cn1", "cell line": "COLO 205", "test": "microarray, item: FosB", "conditions": "concentration not given, 4 h", "how to read": "baseline: untreated cells", "measurement": "fold change in expression", "result": 2.13}
{"Compound": "Cc1nn(-c2ccccc2)c(C)c1C(=O)Nc1ccc2ccccc2n1", "cell line": "Wnt-HEK293", "test": "Wnt/β-catenin signalling, inhibitor, luciferase reporter", "conditions": "1 µM", "measurement": "inhibition", "result": "80%"}
{"Compound": "COc1nc(NCc2cn(-c3ccc(C(=O)Nc4ccc(C(F)(F)F)cc4)cc3)nn2)nc(OC)n1", "cell line": "HCT-116", "test": "annexin V-FITC/PI", "conditions": "IC50, 24 h", "measurement": "apoptotic cells Total", "result": "33.2%"}
{"Compound": "NC(=O)NOCCCCCCCCCC[P+](c1ccccc1)(c1ccccc1)c1ccccc1.O=C([O-])C(F)(F)F", "cell line": "HCT-116", "test": "cell growth, live-cell imaging", "conditions": "12.5 µM, control at 90% confluence", "measurement": "cell confluence", "result": "13.8%"}
{"Compound": "OCc1ccc(N(Cc2ccc(F)cc2)CC2CC2)cc1Cl", "cell line": "RBE", "test": "cell viability, CellTiter-Glo", "measurement": "IC50", "result": "260 nM"}
{"Compound": "COc1cc2ncnc(Nc3ccc(Oc4ccccc4)c(C)c3C)c2cc1OC.Cl", "cell line": "HepG2 (NRAS Q61L)", "test": "resazurin", "conditions": "concentration not given, 72 h, added: trametinib", "how to read": "direction not given", "measurement": "Bliss synergy score", "result": "-189%"}
{"Compound": "CCn1cc(-c2cc(Cn3ccoc3=N)cc3c2CCN([C@@H](C)c2cc(OC)ccn2)C3=O)c(C(F)(F)F)n1", "cell line": "Rec1", "test": "cell growth, inhibitor", "conditions": "120 h", "measurement": "EC50", "result": "3140 nM"}
{"Compound": "NC(=O)NOCCCCCCCCCCCCCCCC[P+](c1ccccc1)(c1ccccc1)c1ccccc1.O=C([O-])C(F)(F)F", "cell line": "HCT-116", "test": "cell growth, live-cell imaging", "conditions": "2 µM, control at 90% confluence", "measurement": "cell confluence", "result": "6.56%"}
{"Compound": "O=c1cc(-c2ccc(O)cc2)oc2c([C@@H]3OC[C@H](O)[C@H](O)[C@H]3O)c(O)c([C@@H]3O[C@H](CO)[C@@H](O)[C@H](O)[C@H]3O)c(O)c12", "cell line": "neonatal mouse cardiomyocytes", "test": "transmission electron microscopy", "conditions": "dose not given, added: angiotensin II 80 ng/mL", "how to read": "baseline: angiotensin II alone", "measurement": "autophagosome number", "result": "increased"}
{"Compound": "Cc1cc(Nc2ncc(Cl)c(Nc3ccccc3S(=O)(=O)C(C)C)n2)c(OC(C)C)cc1C1CCNCC1", "cell line": "CLB-BAR", "test": "phosphoproteomics LC-MS/MS, item: BRD2 phosphorylation", "conditions": "200 nM, 60 min", "how to read": "baseline: untreated", "measurement": "log2 fold change", "result": -4.72}
{"Compound": "C=CC1=C(C)c2cc3[n-]c(cc4nc(cc5[n-]c(cc1n2)c(C)c5C=C)C(C)=C4CCC(=O)O)c(CCC(=O)O)c3C.[Zn+2]", "cell line": "SH-SY5Y", "test": "RNA-seq, item: LIF mRNA", "conditions": "5 µM, 5 h", "how to read": "baseline: untreated cells", "measurement": "fold change", "result": 3.31}
{"Compound": "Cc1ccc(NC(=O)c2ccc(CN3CCN(C)CC3)cc2)cc1Nc1nc(-c2cccnc2)cs1", "cell line": "hiPSC-derived cardiomyocytes (iCell)", "test": "impedance", "conditions": "concentration not given, 24 h", "how to read": "baseline: control", "measurement": "cell index", "result": "99.8%"}
{"Compound": "NC(=O)NOCCCCCCCCCCCC[P+](c1ccccc1)(c1ccccc1)c1ccccc1.O=C([O-])C(F)(F)F", "cell line": "HCT-116", "test": "cell growth, live-cell imaging", "conditions": "2.5 µM, control at 90% confluence", "measurement": "cell confluence", "result": "15.6 ± 1.06%"}
{"Compound": "C[C@H](CCC(=O)NCCS(=O)(=O)O)[C@H]1CC[C@H]2[C@@H]3CC[C@@H]4C[C@H](O)CC[C@]4(C)[C@H]3CC[C@]12C", "cell line": "PCK rat cholangiocytes", "conditions": "20 µM", "how to read": "baseline: untreated", "measurement": "PCNA-positive nuclei", "result": "76%"}
{"Compound": "Cc1c(C(=O)O)ccc2c3n(nc12)[C@@H]1[C@H](C3)N(CC2CC2)[C@@]2(C(=O)Nc3cc(Cl)ccc32)[C@H]1c1cccc(Cl)c1F", "cell line": "LS174T", "test": "cell growth, alamarBlue", "conditions": "unbound, 4.5% of total", "measurement": "IC50", "result": "0.61 nM"}
{"Compound": "CCN(Cc1c(F)cccc1C(F)(F)F)c1ccc(CO)c(Cl)c1", "cell line": "RBE", "test": "cell viability, CellTiter-Glo", "measurement": "IC50", "result": "150 nM"}
{"Compound": "O=C(C[C@@H](C(F)F)n1ccc(F)n1)N1CCC(O)(Cn2cnc3c(cnn3-c3ccc(F)cc3)c2=O)CC1", "cell line": "CHP-212 resistant", "test": "annexin V/PI flow cytometry", "conditions": "0.3 µM, 48 h", "measurement": "late apoptotic cells", "result": "7.75% and 6.65% and 6%"}
{"Compound": "[177Lu+3].[Cl-].[Cl-].[Cl-]", "cell line": "4T1", "test": "flow cytometry", "conditions": "concentration not given, 72 h", "measurement": "viability decrease", "result": "35.8 ± 2.7%"}
{"Compound": "CCn1cc(-c2cc(Cn3ccnc3)cc3c2CCN([C@H](c2cc(OC)ccn2)C2CC2)C3=O)c(C(F)(F)F)n1", "cell line": "Raji", "test": "cell growth, inhibitor", "conditions": "120 h", "measurement": "EC50", "result": "> 30000 nM"}
{"Compound": "O=P1(C2CCCCC2)CCCCC1", "cell line": "SW-620", "test": "annexin V/PI flow cytometry", "conditions": "IC50, 72 h", "measurement": "early apoptotic cells", "result": "4.75%"}
{"Compound": "Cc1ccc(Cn2nc(-c3ccc(CO)o3)c3ccccc32)cc1", "cell line": "RBE", "test": "cell viability, CellTiter-Glo", "measurement": "IC50", "result": "1680 nM"}
{"Compound": "CC/C(=N\\NC(=O)NCc1cccc(O)c1)c1ccc(O)c(C)c1O", "cell line": "SK-OV-3", "test": "Western blot, item: MST", "conditions": "10 µM, 24 h, 3D culture in gellan gum, unit not given", "how to read": "baseline: β-actin", "measurement": "protein level", "result": "1.21 ± 0.26"}
{"Compound": "C=C1CC(C(=O)Nc2cc(C(=O)NC)cc(-c3ccc(C(C)=O)s3)c2OC)C1", "cell line": "BV-2", "test": "fluorescent latex beads", "conditions": "25 µM, 1 h", "how to read": "baseline: control", "measurement": "phagocytosis increase", "result": "~46%"}
{"Compound": "CC(C)NCC(O)c1ccc(O)c(O)c1 (stereo not drawn)", "cell line": "mouse ventricular cardiomyocytes", "conditions": "dose not given, 0.071 s", "measurement": "sarcomere length", "result": "1.8 µm"}
{"Compound": "O=C(/C=C/C=C/C=C/C1CCCCC1)NC1=C[C@@](O)(/C=C/C=C/C=C/C(=O)NC2=C(O)CCC2=O)[C@@H]2O[C@@H]2C1=O", "cell line": "NCI-H810", "test": "cell growth, CellTiter-Glo", "conditions": "78 h", "measurement": "GI50", "result": "19400 nM"}
{"Compound": "COc1cc(Oc2ccnc3cc(OC)c(OC)cc23)ccc1NC(=O)NC(C)c1nccs1 (stereo not drawn)", "cell line": "hiPSC-derived cardiomyocytes (iCell)", "test": "impedance (xCELLigence Cardio)", "conditions": "concentration not given, 2 h", "how to read": "baseline: control", "measurement": "beat rate", "result": "96.2%"}
{"Compound": "O=C1N(Cc2ccccc2Cl)c2ccccc2C12NN=C(c1ccccc1)S2 (stereo not drawn)", "cell line": "NSCLC cells", "test": "MTT", "conditions": "concentration not given, 48 h", "measurement": "viability loss", "result": "80 to 90%"}
{"Compound": "CCN(Cc1cccc(F)c1)c1ccc(CO)c(Cl)c1", "cell line": "RBE", "test": "cell viability, CellTiter-Glo", "measurement": "IC50", "result": "160 nM"}
{"Compound": "COc1ccc(COc2ccc(Cc3cnc(N)nc3N)cc2OC)cc1", "cell line": "hiPSC-derived cardiomyocytes (iCell)", "test": "impedance (xCELLigence Cardio)", "conditions": "concentration not given, 2 h", "how to read": "baseline: control", "measurement": "beat amplitude", "result": "99%"}
{"Compound": "Cc1ccc(CNC(=O)Cn2cc(CSc3nc4ccccc4[nH]3)nn2)cc1", "cell line": "Caco-2", "test": "MTT", "conditions": "250 ppm", "measurement": "viability", "result": "10.4%"}
{"Compound": "C=Cc1c2[n-]c(c1C)/C=c1\\[n-]/c(c(C)c1C=C)=C\\c1[n-]c(c(CCC(=O)O)c1C)/C=c1\\[n-]c(c(C)c1CCC(=O)O)=C2.[Sn+4]", "cell line": "SH-SY5Y", "test": "RNA-seq, item: PTGS1 mRNA", "conditions": "5 µM, 5 h", "how to read": "baseline: untreated cells", "measurement": "fold change", "result": 3.45}
{"Compound": "Cc1cnc(NC2CCOCC2)nc1-n1cnc(C(=O)NC(CN)c2cc(F)cc(Cl)c2)c1 (stereo not drawn)", "cell line": "Rec1", "test": "flow cytometry", "conditions": "1 µM, 48 h", "measurement": "S phase cells", "result": "19.1%"}
{"Compound": "COc1cc(/C=C/C(=O)N2CCC=CC2=O)cc(OC)c1OC", "cell line": "MDA-MB-468", "test": "quantitative RT-PCR, item: FH", "conditions": "30 µM, 8 h", "how to read": "baseline: untreated", "measurement": "mRNA level", "result": "79 ± 0.4%"}
{"Compound": "Cn1cc(-n2cnc3c(NCc4nc5cc(Cl)c(Cl)cc5[nH]4)nc(N4CCOCC4)nc32)cn1", "cell line": "MDA-MB-231", "test": "cell viability, CellCounting-Lite", "conditions": "8.23 nM, 37 °C", "how to read": "higher = more viable cells", "measurement": "luminescence signal", "result": "420000 a.u. and 354000 a.u. and 425000 a.u."}
{"note": "A few entries again:"}
{"Compound": "Cc1cc(Nc2ncc(Cl)c(Nc3ccccc3S(=O)(=O)C(C)C)n2)c(OC(C)C)cc1C1CCNCC1", "cell line": "CLB-BAR", "test": "phosphoproteomics LC-MS/MS, item: BRD2 phosphorylation", "conditions": "200 nM, 60 min", "how to read": "baseline: untreated", "measurement": "log2 fold change", "result": -4.72}
{"Compound": "C=CC1=C(C)c2cc3[n-]c(cc4nc(cc5[n-]c(cc1n2)c(C)c5C=C)C(C)=C4CCC(=O)O)c(CCC(=O)O)c3C.[Zn+2]", "cell line": "SH-SY5Y", "test": "RNA-seq, item: LIF mRNA", "conditions": "5 µM, 5 h", "how to read": "baseline: untreated cells", "measurement": "fold change", "result": 3.31}
